Experimental data of several laboratories.
Compare with care: the assays were run in different laboratories. ± gives the spread as reported.
MAOA: Amine oxidase [flavin-containing] A (MAOA, Homo sapiens, UniProt P21397)
MAP2K7: Dual specificity mitogen-activated protein kinase kinase 7 (MAP2K7, Homo sapiens, UniProt O14733)
UniProt O14733, sequence (whole entry, looked up): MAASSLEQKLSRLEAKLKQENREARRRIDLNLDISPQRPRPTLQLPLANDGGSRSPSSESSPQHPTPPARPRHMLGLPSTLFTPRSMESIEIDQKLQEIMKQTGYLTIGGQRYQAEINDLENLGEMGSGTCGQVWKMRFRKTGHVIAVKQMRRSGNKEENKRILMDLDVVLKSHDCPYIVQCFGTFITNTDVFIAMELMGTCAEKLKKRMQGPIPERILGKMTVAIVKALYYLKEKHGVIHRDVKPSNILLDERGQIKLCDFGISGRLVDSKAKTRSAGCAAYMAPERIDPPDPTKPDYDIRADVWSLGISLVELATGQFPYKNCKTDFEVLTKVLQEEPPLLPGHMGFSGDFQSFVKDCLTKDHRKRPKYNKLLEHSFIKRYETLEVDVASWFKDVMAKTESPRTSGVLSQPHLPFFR

Cc1cc(Nc2nc(C[C@@]3(C(=O)O)CCN(Cc4cccc(Cl)c4F)[C@H](C)C3)cc(C)c2F)[nH]n1 gave an inhibition of -2.59% (MAOA; enzyme activity, inhibitor; 10 µM).
The inhibition of CN(C)[C@H]1C[C@@]23CC[C@@]4(O2)C(=CC[C@]2(C)[C@@H](c5ccc6ccncc6c5)CC[C@H]24)C=C3[C@@H](O)[C@@H]1O is reported as 9.7% (MAP2K7; ATP probe labelling, inhibitor, KiNativ profiling; 0.1 µM).
Cc1ccc2c(n1)c(-c1cccc(S(C)(=O)=O)c1)c(C)n2C/C(F)=C/CN has an inhibition of 1% (MAOA; ligand displacement; 10 µM).
For C/C(=N\OCCCN1CCCCC1)c1ccc(C(F)(F)F)cc1, the inhibition was 39.8% (MAOA; antagonist, FI; 10 µM).
The remaining activity of O=C1NC(=O)c2c1c1cc(F)c[n+]3c1c1c2c2cc(O)ccc2[n]1[Ru-4]312([N]=C=S)[S+]3CC[S+]1CC[S+]2CC3 (stereo not shown) is reported as 38% (MAP2K7; enzyme activity; 100 nM, human enzyme, together with: 10 µM ATP; baseline: untreated).
CC(C)(C)C(=O)OCOP(=O)(OCOC(=O)C(C)(C)C)C1CCCN(O)C1=O (stereo not shown) gave a TGI of 3.53 µM (HL-60(TB); cell growth).
CS(C)(=O)=Nc1ccc(-c2ccc(-c3nc4cc(O[C@@H]5CO[C@H]6[C@@H]5OC[C@H]6O)[nH]c4cc3F)cc2)cc1 gave an inhibition of -2% (MAOA; enzyme activity, inhibitor; 10 µM).
For CCOC(=O)[C@](CC)(CCCSCCOCCOCCNC(=O)c1ccc(-c2c3ccc(=N)c(S(=O)(=O)O)c-3oc3c(S(=O)(=O)O)c(N)ccc23)c(C(=O)O)c1)NC(=O)c1ccc(C2CC2)c(Cc2ccc(F)cc2)n1, the inhibition was 1% (MAOA; enzyme activity, inhibitor; 10 µM).
For O=C1NC2(CC2)COc2ncc(F)cc2[C@H]2COCCN2c2ccn3ncc1c3n2, the organ weight was 0.609 ± 0.144 g (Sprague-Dawley rat, female, thymus; oral, 10 mg/kg/day, 4 weeks).
C[C@H](NCc1ccc(-c2ccc(C(F)(F)F)cc2)cc1)C(N)=O gave an inhibition of 5% (MAOA; enzyme activity, SafetyScreen panel; 1 µM, together with: 50.0 µM kynuramine).
With C[C@H](NC(=O)[C@@H](N)CCC(=O)O)C(=O)N[C@@H](Cc1ccc(O)cc1)C(=O)N[C@@H](CCC(N)=O)C(=O)O the selectivity ratio was 2 (MAOA; inhibitor, fluorometric; baseline: IC50 MAO-B over IC50 MAOA).
The inhibition of CCN(CC)CCOc1ccc(-c2nnn(Cc3ccc(OC)cc3)c2N)cc1 is reported as -5.22% (MAOA; enzyme activity; 10 µM).
COc1ccc(F)cc1S(=O)(=O)Nc1cnc2c(c1)C(=O)NCCO2 gave an inhibition of 1% (MAOA; enzyme activity, inhibitor; 10 µM).

For quick reference, copied from above:
COc1ccc(F)cc1S(=O)(=O)Nc1cnc2c(c1)C(=O)NCCO2 gave an inhibition of 1% (MAOA; enzyme activity, inhibitor; 10 µM).
